Measurements pooled from the literature.
Lines come from different studies, so protocols differ. Values joined by “and” are separate records of one study, mostly repeats; a detail may differ. ± marks the error that the study gave.

MPLTLGTNV  IFN-γ ELISpot response (CD8 T cell response; peptide, naive splenocytes as APCs, mouse; 2 µg/mL, 48 h): negative
insulin glargine  ratio of GIRmax (euglycaemic clamp; type 1 diabetes patients; dose not given; relative to: test over US reference insulin): 0.98
insulin detemir  mean blood glucose (self-monitoring; type 2 diabetic patients; dose not given, one-week bedtime treatment): 130 ± 15 mg/dL
adenosylhomocysteinase  co-IP enrichment (co-immunoprecipitation; human RBC membrane; DSSO crosslinker, unit not given, together with: Band 3 peptide 1-56 bait; relative to: negative control): 45.4
QYLAPRNTL  IFN-γ ELISpot response (CD8 T cell response; peptide, naive splenocytes as APCs, mouse; 2 µg/mL, 48 h): negative
liraglutide  food intake (Wistar rat, female, diet-induced obese; dose not given, 5 days baseline before treatment): 72.1 ± 5.2 kcal/day
YEQDPWGVKWWY  serum IL-3 (peptide, mouse, CP model, serum; 0.154 µmol/kg, 4 weeks; relative to: untreated CP mice): inhibited
insulin degludec  maximum glucose infusion rate (euglycaemic hyperinsulinaemic clamp; healthy Chinese male humans; subcutaneous, 0.4 IU/kg, 24 h, 3 FC level, single dose, reference formulation): 2.15 ± 1 mg/kg/min
cotadutide  plasma AST (C57BL/6J mouse, AMLN diet NASH model; dose not given, terminal): 213 ± 35 U/L
human alpha-enolase  co-IP enrichment (co-immunoprecipitation; human RBC membrane; DMTMM crosslinker, unit not given, together with: Band 3 peptide 1-56 bait; relative to: negative control): 0
calcium  desensitization time constant (ion current, two-electrode voltage clamp; Xenopus oocytes; 1.8 mM, -80 mV, together with: niflumic acid present): 14.9 s and 4.59 s and 13.1 s and 7.54 s and 18.5 s
LTPLVPEEL  IFN-γ ELISpot response (CD8 T cell response; peptide, naive splenocytes as APCs, mouse; 2 µg/mL, 48 h): negative
insulin degludec  C-peptide, mean, post dose (euglycemic clamp, chemiluminescence; healthy human volunteers, C-peptide reduction at least 50%, serum; subcutaneous, 0.4 IU/kg): 0.82 ± 0.28 ng/mL
insulin aspart  maximum glucose infusion rate (euglycaemic clamp; human, type 1 diabetes; subcutaneous, 0.3 U/kg, geometric mean): 9.55 mg/kg/min
FKBP12  co-IP enrichment (co-immunoprecipitation; human RBC cytosol; DSSO crosslinker, unit not given, together with: Band 3 peptide 1-56 bait; relative to: negative control): 0
difelikefalin  PGIC minimally improved (Japanese haemodialysis patients with pruritus; intravenous, 1.0 µg/kg, 8 weeks): 18.3%
CpG-ODN 1826  LAG-3+ cells (mouse B16-F10 tumour, tumour; dose not given, day 8; relative to: CD8 T cells): 15 ± 4.18%
FGASVQEFF  IFN-γ ELISpot response (CD8 T cell response; peptide, naive splenocytes as APCs, mouse; 2 µg/mL, 48 h): negative
semaglutide  fasting plasma insulin (DIO male Wistar rats; dose not given, 7 weeks): 10.6 ± 1.4 ng/mL
RPTSSADEL  IFN-γ ELISpot response (CD8 T cell response; peptide, naive splenocytes as APCs, mouse; 2 µg/mL, 48 h): negative
glucagon  plasma free fatty acids (mouse; dose not given, 1 h): 0.349 mmol/L and 0.797 mmol/L and 0.573 mmol/L and 0.536 mmol/L and 0.427 mmol/L and 0.411 mmol/L
human GAPDH  co-IP enrichment (co-immunoprecipitation; human RBC membrane; DMTMM crosslinker, unit not given, together with: Band 3 peptide 1-56 bait; relative to: negative control): 123
insulin  newborn birth weight (women with gestational diabetes; dose not given, metformin-treated group, median): 2.96 kg
CCT4  co-IP enrichment (co-immunoprecipitation; human RBC membrane; DSSO crosslinker, unit not given, together with: Band 3 peptide 1-56 bait; relative to: negative control): 3.98
heparin sodium  maximum aPTT ratio (item: activated partial thromboplastin time; human healthy volunteers; intravenous infusion, 8 IU/kg/h; relative to: baseline): 1.12
YFARMCSVM  IFN-γ ELISpot response (CD8 T cell response; peptide, naive splenocytes as APCs, mouse; 2 µg/mL, 48 h): negative
CCT3  co-IP enrichment (co-immunoprecipitation; human plasma; unit not given, together with: Band 3 peptide 1-56 bait; relative to: negative control): 0
maraviroc  reversal of Aβ40 reduction (ELISA; HIV-infected mice, brain; i.p., 120 mg/kg twice daily, 3 weeks post infection; relative to: HIV-infected untreated mice): 2.63 fold
GSGAGIESNV  binding intensity (human SCRIB PDZ3-4 tandem (MBP fusion); automated holdup; peptide, purified PDZ protein; concentration not given, unit not given; relative to: biotin control resin, higher = stronger binding): 0.56
tripeptidyl peptidase 2  co-IP enrichment (co-immunoprecipitation; human RBC cytosol; unit not given, together with: Band 3 peptide 1-56 bait; relative to: negative control): 0
SFHLTQTDL  IFN-γ ELISpot response (CD8 T cell response; peptide, naive splenocytes as APCs, mouse; 2 µg/mL, 48 h): negative
human immunoglobulin gamma-1 constant  co-IP enrichment (co-immunoprecipitation; human RBC membrane; no crosslinker, unit not given, together with: Band 3 peptide 1-56 bait; relative to: negative control): 0
GSGAGICTIV  binding intensity (human MAGI1-2/6 PDZ construct (MBP fusion); automated holdup; peptide, crude extract; concentration not given, corrected by standard peak, unit not given; relative to: biotin control resin, higher = stronger binding): 0.0828
somatropin  height at last follow-up (Turner syndrome patients; dose not given, median 4 years, median): 141 cm
insulin aspart  AUC(GIR,0-t) (euglycemic clamp; Japanese type 1 diabetes patients; subcutaneous, 0.2 U/kg single, up to 12 h, least squares mean): 1100 mg/kg
insulin aspart  AUC of glucose infusion rate (euglycaemic glucose clamp; human, younger adults with type 1 diabetes; subcutaneous, 0.2 U/kg): 1200 mg/kg
MYKQELDDI  IFN-γ ELISpot response (CD8 T cell response; peptide, naive splenocytes as APCs, mouse; 2 µg/mL, 48 h): negative
Pam2CSK4  Iba1 level (APP/PS1 mouse, cortex; local injection, dose not given, unit not given; relative to: injected over adjacent side): 4.54 and 6.51 and 4.68

For quick reference, copied from above:
human GAPDH  co-IP enrichment (co-immunoprecipitation; human RBC membrane; DMTMM crosslinker, unit not given, together with: Band 3 peptide 1-56 bait; relative to: negative control): 123
insulin  newborn birth weight (women with gestational diabetes; dose not given, metformin-treated group, median): 2.96 kg
CCT4  co-IP enrichment (co-immunoprecipitation; human RBC membrane; DSSO crosslinker, unit not given, together with: Band 3 peptide 1-56 bait; relative to: negative control): 3.98
heparin sodium  maximum aPTT ratio (item: activated partial thromboplastin time; human healthy volunteers; intravenous infusion, 8 IU/kg/h; relative to: baseline): 1.12
YFARMCSVM  IFN-γ ELISpot response (CD8 T cell response; peptide, naive splenocytes as APCs, mouse; 2 µg/mL, 48 h): negative
